Measured values gathered from unrelated publications.
Each line is one published result; not all experiments were run side by side. “And” joins repeats or separate records; there may be more than shown. ± gives the spread as reported.
NR3C1: Glucocorticoid receptor (NR3C1, Homo sapiens, UniProt P04150)

Amino acid sequences for entries named in this document (tags omitted). A change or cut given only in a name is not applied to a line headed by its entry. Residues count along the entry.
UniProt P04150, whole entry: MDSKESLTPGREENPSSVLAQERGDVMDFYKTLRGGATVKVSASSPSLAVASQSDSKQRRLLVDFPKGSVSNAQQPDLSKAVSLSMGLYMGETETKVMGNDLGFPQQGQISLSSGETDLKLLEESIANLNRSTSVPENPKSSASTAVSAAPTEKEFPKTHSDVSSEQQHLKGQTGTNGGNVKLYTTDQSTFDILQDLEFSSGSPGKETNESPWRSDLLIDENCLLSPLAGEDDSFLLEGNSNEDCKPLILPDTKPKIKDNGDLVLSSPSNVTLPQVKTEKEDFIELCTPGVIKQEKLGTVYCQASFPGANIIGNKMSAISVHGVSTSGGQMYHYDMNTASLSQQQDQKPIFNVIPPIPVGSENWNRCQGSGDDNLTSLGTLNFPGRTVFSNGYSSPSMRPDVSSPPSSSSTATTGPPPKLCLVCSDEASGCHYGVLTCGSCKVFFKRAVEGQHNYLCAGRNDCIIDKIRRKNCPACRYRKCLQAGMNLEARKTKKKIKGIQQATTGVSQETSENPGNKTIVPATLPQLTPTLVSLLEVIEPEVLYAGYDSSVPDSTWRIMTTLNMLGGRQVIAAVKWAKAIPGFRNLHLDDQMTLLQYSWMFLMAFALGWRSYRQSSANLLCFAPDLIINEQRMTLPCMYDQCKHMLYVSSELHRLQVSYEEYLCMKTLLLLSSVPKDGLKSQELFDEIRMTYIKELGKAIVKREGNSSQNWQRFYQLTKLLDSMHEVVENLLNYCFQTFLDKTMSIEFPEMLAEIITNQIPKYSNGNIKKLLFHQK
UniProt P26040, whole entry: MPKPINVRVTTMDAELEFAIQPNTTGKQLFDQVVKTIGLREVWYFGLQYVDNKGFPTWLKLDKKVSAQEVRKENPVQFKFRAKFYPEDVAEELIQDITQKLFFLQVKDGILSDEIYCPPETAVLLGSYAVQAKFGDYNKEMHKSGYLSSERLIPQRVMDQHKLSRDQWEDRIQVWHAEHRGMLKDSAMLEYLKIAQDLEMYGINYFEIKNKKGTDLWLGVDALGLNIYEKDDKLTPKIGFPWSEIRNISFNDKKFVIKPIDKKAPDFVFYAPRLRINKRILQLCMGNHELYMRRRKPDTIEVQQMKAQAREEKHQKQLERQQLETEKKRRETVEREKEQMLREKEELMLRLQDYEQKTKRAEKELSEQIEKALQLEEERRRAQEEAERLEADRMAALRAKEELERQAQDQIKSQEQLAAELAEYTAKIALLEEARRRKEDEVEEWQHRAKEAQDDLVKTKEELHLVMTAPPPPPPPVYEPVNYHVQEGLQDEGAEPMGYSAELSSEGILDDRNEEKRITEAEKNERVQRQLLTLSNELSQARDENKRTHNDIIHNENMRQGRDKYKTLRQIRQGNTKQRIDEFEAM
UniProt O00255, whole entry: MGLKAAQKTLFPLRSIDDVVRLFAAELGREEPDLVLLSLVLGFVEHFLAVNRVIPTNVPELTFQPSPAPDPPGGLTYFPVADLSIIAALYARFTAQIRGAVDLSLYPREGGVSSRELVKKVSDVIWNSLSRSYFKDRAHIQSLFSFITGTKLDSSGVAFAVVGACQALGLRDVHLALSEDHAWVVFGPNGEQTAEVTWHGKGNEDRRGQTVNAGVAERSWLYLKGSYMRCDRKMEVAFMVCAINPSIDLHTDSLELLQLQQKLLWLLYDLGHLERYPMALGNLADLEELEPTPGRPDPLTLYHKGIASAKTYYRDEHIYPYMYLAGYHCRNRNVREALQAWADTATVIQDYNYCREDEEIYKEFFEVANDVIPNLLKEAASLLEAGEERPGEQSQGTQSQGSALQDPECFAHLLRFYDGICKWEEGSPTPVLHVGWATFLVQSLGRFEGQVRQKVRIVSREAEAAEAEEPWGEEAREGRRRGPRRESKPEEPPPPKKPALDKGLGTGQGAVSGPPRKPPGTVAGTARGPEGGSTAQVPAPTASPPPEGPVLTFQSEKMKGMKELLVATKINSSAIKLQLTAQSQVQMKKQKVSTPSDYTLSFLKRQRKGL
UniProt Q13546, whole entry: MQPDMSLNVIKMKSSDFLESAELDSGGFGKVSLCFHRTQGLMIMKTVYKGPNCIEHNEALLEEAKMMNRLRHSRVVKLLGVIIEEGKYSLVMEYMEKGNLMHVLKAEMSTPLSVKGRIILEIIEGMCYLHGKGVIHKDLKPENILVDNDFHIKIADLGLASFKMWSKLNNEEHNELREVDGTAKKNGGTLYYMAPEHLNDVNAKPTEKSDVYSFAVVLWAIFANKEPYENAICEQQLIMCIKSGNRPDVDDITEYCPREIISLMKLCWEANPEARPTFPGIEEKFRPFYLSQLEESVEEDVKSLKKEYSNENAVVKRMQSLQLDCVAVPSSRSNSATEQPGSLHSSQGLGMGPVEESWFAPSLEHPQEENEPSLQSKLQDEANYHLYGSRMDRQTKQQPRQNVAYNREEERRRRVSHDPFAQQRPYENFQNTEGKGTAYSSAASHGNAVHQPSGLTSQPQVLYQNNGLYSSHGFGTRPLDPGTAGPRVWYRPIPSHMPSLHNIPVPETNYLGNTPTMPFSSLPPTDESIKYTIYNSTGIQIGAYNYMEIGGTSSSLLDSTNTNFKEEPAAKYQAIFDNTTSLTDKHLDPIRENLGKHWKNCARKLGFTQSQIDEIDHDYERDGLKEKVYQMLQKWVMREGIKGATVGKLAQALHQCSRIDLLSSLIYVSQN
UniProt O28751, whole entry: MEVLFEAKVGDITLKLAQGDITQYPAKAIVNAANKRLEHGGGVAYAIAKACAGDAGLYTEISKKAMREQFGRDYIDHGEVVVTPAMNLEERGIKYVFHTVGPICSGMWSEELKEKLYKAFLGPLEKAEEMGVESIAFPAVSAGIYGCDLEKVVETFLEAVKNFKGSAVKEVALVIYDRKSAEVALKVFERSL
UniProt O95069, whole entry, looked up: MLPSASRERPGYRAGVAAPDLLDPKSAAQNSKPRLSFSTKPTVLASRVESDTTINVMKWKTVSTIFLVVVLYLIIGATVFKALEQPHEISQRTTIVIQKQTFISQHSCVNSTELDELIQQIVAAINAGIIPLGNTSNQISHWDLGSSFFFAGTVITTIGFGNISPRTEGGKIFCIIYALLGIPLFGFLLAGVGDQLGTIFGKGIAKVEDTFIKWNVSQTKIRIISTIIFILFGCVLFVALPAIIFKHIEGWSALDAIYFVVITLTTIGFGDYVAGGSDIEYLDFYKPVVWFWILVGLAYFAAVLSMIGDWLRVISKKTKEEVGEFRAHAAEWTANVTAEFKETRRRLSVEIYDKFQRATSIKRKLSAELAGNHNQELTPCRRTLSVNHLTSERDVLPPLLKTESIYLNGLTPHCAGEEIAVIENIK
UniProt P31749, 5-108 limits assumed: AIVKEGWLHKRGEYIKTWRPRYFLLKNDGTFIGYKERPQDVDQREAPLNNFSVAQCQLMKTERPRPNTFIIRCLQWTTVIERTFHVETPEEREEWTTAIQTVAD
UniProt P29350, whole entry: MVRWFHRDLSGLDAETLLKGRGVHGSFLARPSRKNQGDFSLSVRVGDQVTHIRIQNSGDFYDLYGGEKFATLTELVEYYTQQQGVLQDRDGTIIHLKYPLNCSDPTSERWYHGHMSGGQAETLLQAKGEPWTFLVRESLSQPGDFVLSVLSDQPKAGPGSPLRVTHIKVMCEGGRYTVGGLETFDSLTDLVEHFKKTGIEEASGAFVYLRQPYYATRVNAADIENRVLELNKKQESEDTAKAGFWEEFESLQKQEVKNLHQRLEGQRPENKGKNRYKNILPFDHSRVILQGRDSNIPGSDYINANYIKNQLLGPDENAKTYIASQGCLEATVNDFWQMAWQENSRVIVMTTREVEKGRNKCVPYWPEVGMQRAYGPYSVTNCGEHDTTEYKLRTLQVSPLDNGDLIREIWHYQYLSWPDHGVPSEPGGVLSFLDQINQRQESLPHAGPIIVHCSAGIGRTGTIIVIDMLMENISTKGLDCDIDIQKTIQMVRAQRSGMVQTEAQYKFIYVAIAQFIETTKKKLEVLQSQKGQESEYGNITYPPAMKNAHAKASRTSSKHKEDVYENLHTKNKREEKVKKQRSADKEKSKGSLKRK
UniProt P08631, whole entry: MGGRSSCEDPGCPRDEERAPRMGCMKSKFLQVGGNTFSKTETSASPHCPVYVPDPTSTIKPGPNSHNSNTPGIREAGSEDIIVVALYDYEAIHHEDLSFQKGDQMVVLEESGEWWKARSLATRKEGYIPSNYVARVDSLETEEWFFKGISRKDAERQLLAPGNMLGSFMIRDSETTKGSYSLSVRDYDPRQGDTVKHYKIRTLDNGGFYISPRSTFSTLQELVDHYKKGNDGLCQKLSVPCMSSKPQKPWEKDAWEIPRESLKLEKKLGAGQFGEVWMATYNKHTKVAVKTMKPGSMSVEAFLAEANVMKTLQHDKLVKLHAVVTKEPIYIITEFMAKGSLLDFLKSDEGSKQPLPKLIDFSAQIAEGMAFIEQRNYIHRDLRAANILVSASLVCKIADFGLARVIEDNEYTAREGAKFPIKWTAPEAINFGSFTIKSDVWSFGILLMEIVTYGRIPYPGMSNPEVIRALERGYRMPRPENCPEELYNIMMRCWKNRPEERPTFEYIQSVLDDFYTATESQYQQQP
UniProt P07550, whole entry M96T/M98T/N187E/C378A/C406A: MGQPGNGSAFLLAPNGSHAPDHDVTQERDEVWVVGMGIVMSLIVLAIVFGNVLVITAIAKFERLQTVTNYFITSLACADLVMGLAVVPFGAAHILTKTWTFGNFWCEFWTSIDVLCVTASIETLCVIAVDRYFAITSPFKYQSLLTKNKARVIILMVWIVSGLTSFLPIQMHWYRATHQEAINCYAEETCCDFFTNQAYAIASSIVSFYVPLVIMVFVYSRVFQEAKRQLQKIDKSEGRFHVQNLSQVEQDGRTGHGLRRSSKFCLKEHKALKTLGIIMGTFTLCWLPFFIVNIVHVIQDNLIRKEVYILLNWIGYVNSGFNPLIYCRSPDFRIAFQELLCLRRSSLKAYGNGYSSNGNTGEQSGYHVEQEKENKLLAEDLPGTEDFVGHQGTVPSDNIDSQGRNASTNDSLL
UniProt O14618, whole entry: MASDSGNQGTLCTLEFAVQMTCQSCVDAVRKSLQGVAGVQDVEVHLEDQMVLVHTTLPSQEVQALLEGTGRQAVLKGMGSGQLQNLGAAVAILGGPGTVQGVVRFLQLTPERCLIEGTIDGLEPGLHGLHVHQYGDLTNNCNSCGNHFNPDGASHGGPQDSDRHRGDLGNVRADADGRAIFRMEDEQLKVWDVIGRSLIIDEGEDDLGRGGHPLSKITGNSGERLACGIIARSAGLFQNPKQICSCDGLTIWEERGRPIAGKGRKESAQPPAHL
UniProt Q9BPZ7, 358-522 limits assumed: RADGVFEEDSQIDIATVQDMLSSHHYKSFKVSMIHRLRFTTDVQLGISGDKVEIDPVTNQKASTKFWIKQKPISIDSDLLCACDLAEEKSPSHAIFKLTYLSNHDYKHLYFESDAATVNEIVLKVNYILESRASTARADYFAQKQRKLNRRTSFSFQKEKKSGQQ
UniProt Q9QWY8, 325-724 limits assumed: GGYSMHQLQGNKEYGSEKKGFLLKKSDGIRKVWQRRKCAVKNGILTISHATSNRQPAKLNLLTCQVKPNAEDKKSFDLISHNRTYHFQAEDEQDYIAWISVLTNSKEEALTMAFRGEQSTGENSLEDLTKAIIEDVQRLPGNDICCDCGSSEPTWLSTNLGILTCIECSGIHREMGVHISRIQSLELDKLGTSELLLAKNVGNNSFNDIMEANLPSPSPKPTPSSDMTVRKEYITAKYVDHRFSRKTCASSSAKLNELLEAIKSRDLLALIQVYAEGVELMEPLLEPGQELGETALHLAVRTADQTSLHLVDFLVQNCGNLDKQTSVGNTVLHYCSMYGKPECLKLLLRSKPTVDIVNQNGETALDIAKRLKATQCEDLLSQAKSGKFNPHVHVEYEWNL

O=C1C=C(NCCc2cc(Br)c(O)c(Br)c2)C(=O)c2ncccc21  Kd (Ezrin (Ezr, Mus musculus, UniProt P26040); SPR): 12.6 µM and ~10 µM
CC(C)c1cc2c(N3CCN(C4=NCC(C)(C)S4)CC3)ncnc2s1  Kd (Menin (MEN1, Homo sapiens, UniProt O00255); binding, isothermal titration calorimetry): 0.201 µM
CC1=CC(C)=[N+]2C1=Cc1ccc(CCC(=O)NCCCn3cc(-c4ccc5c(c4)CCN5C(=O)Cc4cccc(OC(F)(F)F)c4)c4c(N)ncnc43)n1[B-]2(F)F  Kd (Receptor-interacting serine/threonine-protein kinase 1 (RIPK1, Homo sapiens, UniProt Q13546); binding, TR-FRET saturation binding): 0.608 µM
Nc1ncnc2c1ncn2[C@@H]1O[C@H](COP(=O)(O)OP(=O)(O)OC[C@H]2OC(O)[C@H](O)[C@@H]2O)[C@@H](O)[C@H]1O (stereo partly shown)  Kd (ADP-ribose glycohydrolase AF_1521 (Archaeoglobus fulgidus, UniProt O28751); labelled tracer, fluorescence polarization; pH 7.4, 22 °C, 150 mM NaCl): 1.2 µM
CCCCCCCC(=O)OCC(COP(=O)(O)OC1C(O)C(O)C(OP(=O)(O)O)C(OP(=O)(O)O)C1O)OC(=O)CCCCCCC (stereo not shown)  Kd (Potassium channel subfamily K member 2 (KCNK2, Homo sapiens, UniProt O95069); BRET competition binding; purified protein in detergent; added: fluorescent ligand 500 nM): 2.4 ± 0.28 µM
Cc1c(O)cc2c(c1C)O[C@](C)(CCCC(C)C)CC2  Kd (RAC-alpha serine/threonine-protein kinase, PH domain (AKT1, Homo sapiens, UniProt P31749); binding): 0.9 ± 0.1 µM
COc1cc(OC)c(NC(=O)CSc2nnc(-c3ccccc3)n2C)cc1Cl  Kd (Cyclin-dependent kinase 2, part with cyclin A (CDK2, Homo sapiens, UniProt P24941)): > 100 µM
COc1cc(CC(=O)NCC(NC(=O)C(CCCNC(=O)c2cccc(I)c2)NC(=O)C(Cc2ccc(C(F)(F)P(=O)(O)O)cc2)NC(=O)c2ccc(C)c(Br)c2)C(N)=O)ccc1O (stereo not shown)  inhibition (Tyrosine-protein phosphatase non-receptor type 6 (PTPN6, Homo sapiens, UniProt P29350); enzyme activity; 10 µM): no inhibition
CCN1CCN(Cc2ccc(NC(=O)c3ccc(C)c(Oc4ncnc5cc(OC)c(OC)cc45)c3)cc2C(F)(F)F)CC1  residual probe binding (Tyrosine-protein kinase HCK (HCK, Homo sapiens, UniProt P08631); KINOMEscan competition binding; 1.0 µM): 0.3%
CN1CCC[C@H](C(=O)OCC(=O)[C@]2(O)CC[C@@H]3[C@H]4CCC5=CC(=O)CC[C@@]5(C)[C@H]4[C@@H](O)C[C@]32C)C1  EC50 (NR3C1; nuclear translocation, agonist, enzyme fragment complementation): > 9 µM
Fc1ccc(Nc2nc(NC3CCCCC3)c3cc(Br)ccc3n2)cc1F  Kd (Beta-2 adrenergic receptor (ADRB2, Homo sapiens, UniProt P07550, M96T/M98T/N187E/C378A/C406A); allosteric, SPR steady state; pH 7.5, 0.01% LMNG): ~30 µM
Nc1c(C(=O)Nc2c(F)cc(F)cc2Br)sc2nc3c(cc12)CCC3  Kd (Copper chaperone for superoxide dismutase (CCS, Homo sapiens, UniProt O14618); binding, fluorescence anisotropy): 7.9 µM
CCCCCCCC(=O)OC[C@H](COP(=O)(O)O[C@H]1[C@H](O)[C@@H](OP(=O)(O)O)[C@H](OP(=O)(O)O)[C@@H](OP(=O)(O)O)[C@H]1O)OC(=O)CCCCCCC  Kd (Target of rapamycin complex 2 subunit MAPKAP1, PH domain (Homo sapiens, UniProt Q9BPZ7); binding, surface plasmon resonance; immobilized lipid vesicles): 0.141 µM
C[C@@]12C[C@H](O)C3[C@H](CCC4=CC(=O)CC[C@]43C)[C@H]1CC[C@@H]2c1csc(-c2ccccc2)n1 (stereo partly shown)  EC50 (NR3C1; nuclear translocation, agonist, enzyme fragment complementation): > 9 µM
C#CCCCn1c(Sc2c(C)cc(C)cc2C)nc2c(N)ncnc21  Kd (Heat shock protein HSP 90-alpha (HSP90AA1, Homo sapiens, UniProt P07900); binding, FP competition or ITC): 28.4 ± 3.3 µM
CCCCCCCC(=O)OCC(COP(=O)(O)OC1C(O)C(O)C(OP(=O)(O)O)C(OP(=O)(O)O)C1O)OC(=O)CCCCCCC (stereo not shown)  Kd (Arf-GAP with SH3 domain, ANK repeat and PH domain-containing protein 1, PH-ArfGAP-Ank repeats (Asap1, Mus musculus, UniProt Q9QWY8); protein binding to vesicles, vesicle sedimentation; large unilamellar vesicles; PH-ArfGAP-Ank fragment, added: 75 µM phosphatidylserine): 11 ± 2 µM
